Published values collected from several papers.
Compare with care: the assays were run in different laboratories. ± marks the error that the study gave.

Substance = CCCC(CCC(=O)O)NC(=O)c1ccc2c(c1)OCO2 (stereo not drawn); test system = male Sprague-Dawley rat, plasma; setting = oral, 20 mg/kg of parent drug; Tmax = 0.5 h
Substance = N[C@H](COc1ccccc1C(F)(F)F)c1ccccc1; test system = male Sprague-Dawley rat; setting = oral, 25 mg/kg; Tmax = 1.5 h
Substance = CCCCC/C=C/C=C/C(=O)NCC(C)C; test system = rat, sham-operated, plasma; setting = oral, 50 mg/kg; Tmax = 0.45 ± 0.21 h
Substance = COc1cc2oc(-c3ccc(O)cc3)cc(=O)c2c(O)c1[C@@H]1O[C@H](CO)[C@@H](O)[C@H](O)[C@H]1O[C@@H]1O[C@H](CO)[C@@H](O)[C@H](O)[C@H]1O; test system = male Sprague-Dawley rat, PCPA-induced insomnia, plasma; setting = oral, 6.8 g/kg; Tmax = 0.23 ± 0.09 h
Substance = O=C(O)CN1CCN(CC(=O)O)CCN(C(CCC(=O)NCc2ccc(NC(=S)NCCOCCOCCOCCNC(=O)CCCc3ccc(I)cc3)cc2)C(=O)O)CC1 (stereo not drawn); test = dynamic PET/CT; test system = Sprague-Dawley rats female, cisterna magna; setting = intracisternal infusion, median; Tmax = 0.542 h
Substance = C=C(c1ccc(C(=O)O)c(F)c1)c1cc2c(cc1C)C(C)(C)C=CC2(C)C; test system = rat Sprague-Dawley male, plasma; setting = oral, 100 mg/kg, sesame oil; Tmax = 1 h
Substance = Cc1noc(C)c1Cn1cc(N2C(=O)CN(Cc3cccc(O[C@@H]4O[C@H](C(=O)O)[C@@H](O)[C@H](O)[C@H]4O)c3)C2=O)cn1; test system = rat Sprague-Dawley male, plasma; setting = oral, 100 mg/kg of parent drug; Tmax = 0.5 h
Substance = Cc1ccccc1/N=N/c1ccc(/N=N/c2c(O)ccc3ccccc23)c(C)c1; test system = Sprague-Dawley rats both sexes, whole blood; setting = oral, 50 mg/kg; Tmax = ~4.34 h
Substance = CC(=O)[CH](C(C)=O)[Pt-2]1([S+](C)C)[O]C(C)=CC(C)=[O+]1 (stereo not drawn); test = refers to: platinum; test system = rat, plasma; setting = intravenous, dose not given; Tmax = 0.5 h
Substance = CCNC(=O)[C@@H]1CCCN1C(=O)[C@H](CCCNC(=N)N)NC(=O)[C@H](CC(C)C)NC(=O)[C@@H](CC(C)C)NC(=O)[C@H](Cc1ccc(O)cc1)NC(=O)[C@H](CO)NC(=O)[C@H](Cc1c[nH]c2ccccc12)NC(=O)[C@H](Cc1c[nH]cn1)NC(=O)[C@@H]1CCC(=O)N1; test system = Sprague-Dawley rat, male, plasma; setting = subcutaneous, 12.5 mg/kg; Tmax = ≤ 1 h
Substance = CC/C=C\C/C=C\C/C=C\C/C=C\C/C=C\CCCCOC(CC)C(=O)O (stereo not drawn); test system = Wistar rat, male, mesenteric lymph; setting = oral, 100 mg/kg; Tmax = 3 h
Substance = CCCC(CCC)NC(=O)c1ccc(O)c(O)c1; test system = male Sprague-Dawley rat, plasma; setting = oral, 20 mg/kg of parent drug; Tmax = 0.31 h
Substance = Ac-CSNLSTCXLGKLSQDLHRLQTYPKTDVGANAP-NH2 (N-acetyl, C-amide); test = ELISA; test system = peptide, high-fat diet Sprague Dawley rats, plasma; setting = subcutaneous, 4 nmol/kg; Tmax = 8 h
Substance = COC(=O)/C=C/C(=O)c1ccc(OC)cc1; test system = Sprague-Dawley rat, plasma; setting = oral, 200 mg/kg; Tmax = ~0.6 h
Substance = Oc1ccc2ccccc2c1/N=N/c1ccc(/N=N/c2ccccc2)cc1; test system = Sprague-Dawley rats both sexes, whole blood; setting = oral, 50 mg/kg; Tmax = ~4.2 h
Substance = C=C(c1ncc(C(=O)O)cn1)c1cc2c(cc1C)C(C)(C)CCC2(C)C; test system = rat Sprague-Dawley male, plasma; setting = oral, 100 mg/kg, sesame oil; Tmax = 1 h
Substance = CC(C)C[C@H](NC(=O)[C@H](CCCCN)NC(=O)CNC(=O)[C@H](CC(C)C)NC(=O)[C@@H](NC(=O)[C@@H]1CSSC[C@H](N)C(=O)N[C@@H](CO)C(=O)N[C@@H](CC(N)=O)C(=O)N[C@@H](CC(C)C)C(=O)N[C@@H](CO)C(=O)N[C@@H]([C@@H](C)O)C(=O)N1)C(C)C)C(=O)N[C@@H](CO)C(=O)N[C@@H](CCC(N)=O)C(=O)N[C@@H](CCC(=O)O)C(=O)N[C@@H](CC(C)C)C(=O)N[C@@H](Cc1c[nH]cn1)C(=O)N[C@@H](CCCCN)C(=O)N[C@@H](CC(C)C)C(=O)N[C@@H](CCC(N)=O)C(=O)N[C@H](C(=O)N[C@@H](Cc1ccc(O)cc1)C(=O)N1CCC[C@H]1C(=O)N[C@@H](CCCNC(=N)N)C(=O)N[C@H](C(=O)N[C@@H](CC(N)=O)C(=O)N[C@H](C(=O)NCC(=O)N[C@@H](CO)C(=O)NCC(=O)N[C@H](C(=O)N1CCC[C@H]1C(N)=O)[C@@H](C)O)[C@@H](C)O)[C@@H](C)O)[C@@H](C)O; test = ELISA; test system = hairless Sprague-Dawley rat, male, serum; setting = subcutaneous, 3 µg, coating dissolved from microneedles; Tmax = 0.25 h
Substance = CCCC(CCC)NC(=O)c1ccc(OC2OC(C(=O)O)C(O)C(O)C2O)c(OC)c1 (stereo not drawn); test system = female Sprague-Dawley rat, plasma; setting = oral, 50 mg/kg of parent drug; Tmax = 2.8 h
Substance = O=C(O)CN1CCN(CC(=O)O)CCN(C(CCC(=O)NCc2ccc(NC(=S)NCCNC(=O)CCCc3ccc(I)cc3)cc2)C(=O)O)CC1 (stereo not drawn); test = dynamic PET/CT; test system = Sprague-Dawley rats female, cisterna magna; setting = intracisternal infusion, median; Tmax = 0.5 h
Substance = Cc1ccc(OCC(=O)O)cc1; test system = Sprague-Dawley rat Crl:CD(SD), female, plasma; setting = oral, 10 mg/kg/day of parent drug, day 90, 90-day repeated dosing; Tmax = 1 h
Substance = Cc1noc(C)c1Cn1cc(N2C(=O)CN(Cc3cccc(OS(=O)(=O)O)c3)C2=O)cn1; test system = rat Sprague-Dawley male, plasma; setting = oral, 100 mg/kg of parent drug; Tmax = 4 h
Substance = O=c1c2cc(Cl)ccc2sc2c(NCc3ccccc3)nc3ccccc3c12; test system = rat Sprague-Dawley male, plasma; setting = intravenous, 3.0 mg/kg; Tmax = 0.14 ± 0.06 h
Substance = CCCC(CCC)NC(=O)c1ccc(OS(=O)(=O)O)c(OC)c1; test system = male Sprague-Dawley rat, plasma; setting = oral, 200 mg/kg of parent drug; Tmax = 5 h
Substance = COC(=O)c1ccc2c(c1)NC(=O)/C2=C(\Nc1ccc2c(c1)CCN2C(=O)CN1CCOCC1)c1ccccc1; test system = Sprague-Dawley rat, plasma; setting = oral, 10 mg/kg; Tmax = 1 h

Some of these lines once more:
Substance = CC(C)C[C@H](NC(=O)[C@H](CCCCN)NC(=O)CNC(=O)[C@H](CC(C)C)NC(=O)[C@@H](NC(=O)[C@@H]1CSSC[C@H](N)C(=O)N[C@@H](CO)C(=O)N[C@@H](CC(N)=O)C(=O)N[C@@H](CC(C)C)C(=O)N[C@@H](CO)C(=O)N[C@@H]([C@@H](C)O)C(=O)N1)C(C)C)C(=O)N[C@@H](CO)C(=O)N[C@@H](CCC(N)=O)C(=O)N[C@@H](CCC(=O)O)C(=O)N[C@@H](CC(C)C)C(=O)N[C@@H](Cc1c[nH]cn1)C(=O)N[C@@H](CCCCN)C(=O)N[C@@H](CC(C)C)C(=O)N[C@@H](CCC(N)=O)C(=O)N[C@H](C(=O)N[C@@H](Cc1ccc(O)cc1)C(=O)N1CCC[C@H]1C(=O)N[C@@H](CCCNC(=N)N)C(=O)N[C@H](C(=O)N[C@@H](CC(N)=O)C(=O)N[C@H](C(=O)NCC(=O)N[C@@H](CO)C(=O)NCC(=O)N[C@H](C(=O)N1CCC[C@H]1C(N)=O)[C@@H](C)O)[C@@H](C)O)[C@@H](C)O)[C@@H](C)O; test = ELISA; test system = hairless Sprague-Dawley rat, male, serum; setting = subcutaneous, 3 µg, coating dissolved from microneedles; Tmax = 0.25 h
Substance = CCCC(CCC)NC(=O)c1ccc(OC2OC(C(=O)O)C(O)C(O)C2O)c(OC)c1 (stereo not drawn); test system = female Sprague-Dawley rat, plasma; setting = oral, 50 mg/kg of parent drug; Tmax = 2.8 h
Substance = O=C(O)CN1CCN(CC(=O)O)CCN(C(CCC(=O)NCc2ccc(NC(=S)NCCNC(=O)CCCc3ccc(I)cc3)cc2)C(=O)O)CC1 (stereo not drawn); test = dynamic PET/CT; test system = Sprague-Dawley rats female, cisterna magna; setting = intracisternal infusion, median; Tmax = 0.5 h
